Assay results pooled from the literature.
Lines come from different studies, so protocols differ. Numbers after ± are the reported error.
Technique: steady-state kinetics
B1: protein (UniProt A0A4Y6I1F8); chain MGSEVVSKKHEFGALEVEGIDFRASVAALGSTKKLVLGGAGFRGLEINGNLVKFTAIGIYVEEAIIPHLSPKLGGKTVEELCANELLFEEVLSAPFDKLIRVVFLLPLTGPQYSEKVVERIGLLPNPGLKEESIKQFLEIFKAENFPPRTSLVCSFTEDGLKIAFMKGPDFPEESDAVIEDKYFARAFLATIIAKDGVSPMAKLSFAERVSKYL
B2: putA N1014A (Rhodobacter capsulatus, UniProt D5AN87); chain MTDLSALGPKAKFAPEAEVLQALVAQAALPQPQLDRIAARGADLVARIRAEAKPSLMEHFLAQYGLSTREGVALMCLAEAMLRVPDTATIDALIEDKIAPSDWGKHLGTAASSLVNASTWALMLTGKVLDDGAGGIAGTLRGAMRRLGEPVIRAAVGQAMREMGRQFVLGETIEKALERAEKREAEGYTFSYDMLGEAALTAADAERYRLAYAQAITAIGKAATRGSIAANPGISIKLSALHPRYEVAQEARVMAELVPVVRDLARAAARAGIALHIDAEEQDRLALSLRVMAAVIADPETAGWEGFGAVVQAYGKRAGAAIDALAAMARAAGRRINIRLVKGAYWDAEMKRAQVEGHPGFPLFTSKTGTDVAYICLAAKLFGLNDCIYPQFATHNAHTVAAVLEMAAGRPFEFQRLHGMGARLHDIVLRETGGRCRIYAPVGAHRDLLAYLVRRLLENGANSSFVNQIVNESVPPAEVAACPFAALPTARAPRGLLAPADLFGAGRVNAQGFDLSDPEVLARIEAARDVTLPDAAPIVAGPVSGTLRPVRNPATGAVVAQVTEADAATVALALDAAQVWSAPAATRAAVLCRAADLYEENFGPIFAALAQEAGKTLGDAVSELREAVDFLRYYAAEGAADTRPPRGAVVAISPWNFPLAIFTGQVAAALMAGNAVLAKPAEQTPIIAALAVRLLHQAGVPETALQLLPGDGPTVGAALTRDPRVAGVVFTGSTETAQIIARAMAAHLAPGTPLIAETGGLNAMVVDSTALPEQAVRDVVASAFRSAGQRCSALRCLYVQDDIAPHLIGMLKGAMEELVSGDPARLSTDVGPVIDAEAKAGIETYLAANKARILHRSTAPEGGHFVAPALLQVGGIADLEREIFGPVLHLATFAAEDLPAVIAAINARGYGLTFGLHSRIDARVETVAETIRAGNIYVNRNQIGAVVGSQPFGGEGLSGTGPKAGGPLYLNRFYAPEPVVAVGGWTEAATPILPEARETQLDEIFLPGPTGELARLTRHQRGPILCLGPGAEAASAQAAAVVALGGQAVQASGAVSPKALETLTPLAGVLWWGAAEMGRAYAQALAVRPGPLVPLITAKPDLAHVAHERHLCVDTTAAGGNAALLAG
B3: PRODH2 157-515 (Homo sapiens, UniProt Q9UF12); chain YGQFVAGETAEEVKGCVQQLRTLSLRPLLAVPTEEEPDSAAKSGEAWYEGNLGAMLRCVDLSRGLLEPPSLAEASLMQLKVTALTSTRLCKELASWVRRPGASLELSPERLAEAMDSGQNLQVSCLNAEQNQHLRASLSRLHRVAQYARAQHVRLLVDAEYTSLNPALSLLVAALAVRWNSPGEGGPWVWNTYQACLKDTFERLGRDAEAAHRAGLAFGVKLVRGAYLDKERAVAQLHGMEDPTQPDYEATSQSYSRCLELMLTHVARHGPMCHLMVASHNEESVRQATKRMWELGIPLDGTVCFGQLLGMCDHVSLALGQAGYVVYKSIPYGSLEEVIPYLIRRAQENRSVLQGARRE
B4: GTPBP3 E142K/R136E (Homo sapiens, UniProt Q969Y2); chain TRRSSGAPAPGSGATIFALSSGQGRCGIAVIRTSGPASGHALRILTAPRDLPLARHASLRLLSDPRSGEPLDRALVLWFPGPQSFTGEDCVEFHVHGGPAVVSGVLQALGSVPGLEPAEAGKFTRRAFANGKLNLTEVEGLADLIHAETEAQRRQALRQLDGELGHLCRGWAETLTKALAHVEAYIDFGEDDNLEEGVLEQADIEVRALQVALGAHLRDARRGQRLRSGVHVVVTGPPNAGKSSLVNLLSRKPVSIVSPEPGTTRDVLETPVDLAGFPVLLSDTAGLREGVGPVEQEGVRRARERLEQADLILAMLDASDLASPSSCNFLATVVASVGAQSPSDSSQRLLLVLNKSDLLSPEGPGPGPDLPPHLLLSCLTGEGLDGLLEALRKELAAVCGDPSTDPPLLTRARHQHHLQGCLDALGHYKQSKDLALAAEALRVARGHLTRLTGGGGTEEILDIIFQDFCVGK
B5: ERAP1 (Homo sapiens, UniProt Q9NZ08); chain MVFLPLKWSLATMSFLLSSLLALLTVSTPSWCQSTEASPKRSDGTPFPWNKIRLPEYVIPVHYDLLIHANLTTLTFWGTTKVEITASQPTSTIILHSHHLQISRATLRKGAGERLSEEPLQVLEHPRQEQIALLAPEPLLVGLPYTVVIHYAGNLSETFHGFYKSTYRTKEGELRILASTQFEPTAARMAFPCFDEPAFKASFSIKIRREPRHLAISNMPLVKSVTVAEGLIEDHFDVTVKMSTYLVAFIISDFESVSKITKSGVKVSVYAVPDKINQADYALDAAVTLLEFYEDYFSIPYPLPKQDLAAIPDFQSGAMENWGLTTYRESALLFDAEKSSASSKLGITMTVAHELAHQWFGNLVTMEWWNDLWLNEGFAKFMEFVSVSVTHPELKVGDYFFGKCFDAMEVDALNSSHPVSTPVENPAQIREMFDDVSYDKGACILNMLREYLSADAFKSGIVQYLQKHSYKNTKNEDLWDSMASICPTDGVKGMDGFCSRSQHSSSSSHWHQEGVDVKTMMNTWTLQKGFPLITITVRGRNVHMKQEHYMKGSDGAPDTGYLWHVPLTFITSKSDMVHRFLLKTKTDVLILPEEVEWIKFNVGMNGYYIVHYEDDGWDSLTGLLKGTHTAVSSNDRASLINNAFQLVSIGKLSIEKALDLSLYLKHETEIMPVFQGLNELIPMYKLMEKRDMNEVETQFKAFLIRLLRDLIDKQTWTDEGSVSERMLRSQLLLLACVHNYQPCVQRAEGYFRKWKESNGNLSLPVDVTLAVFAVGAQSTEGWDFLYSKYQFSLSSTEKSQIEFALCRTQNKEKLQWLLDESFKGDKIKTQEFPQILTLIGRNPVGYPLAWQFLRKNWNKLVQKFELGSSSIAHMVMGTTNQFSTRTRLEEVKGFFSSLKENGSQLRCVQQTIETIEENIGWMDKNFDKIRVWLQSEKLEHDPEADATG
B6: Msh2/Msh3 (Saccharomyces cerevisiae); chain 1 MSSTRPELKFSDVSEERNFYKKYTGLPKKPLKTIRLVDKGDYYTVIGSDAIFVADSVYHTQSVLKNCQLDPVTAKNFHEPTKYVTVSLQVLATLLKLCLLDLGYKVEIYDKGWKLIKSASPGNIEQVNELMNMNIDSSIIIASLKVQWNSQDGNCIIGVAFIDTTAYKVGMLDIVDNEVYSNLESFLIQLGVKECLVQDLTSNSNSNAEMQKVINVIDRCGCVVTLLKNSEFSEKDVELDLTKLLGDDLALSLPQKYSKLSMGACNALIGYLQLLSEQDQVGKYELVEHKLKEFMKLDASAIKALNLFPQGPQNPFGSNNLAVSGFTSAGNSGKVTSLFQLLNHCKTNAGVRLLNEWLKQPLTNIDEINKRHDLVDYLIDQIELRQMLTSEYLPMIPDIRRLTKKLNKRGNLEDVLKIYQFSKRIPEIVQVFTSFLEDDSPTEPVNELVRSVWLAPLSHHVEPLSKFEEMVETTVDLDAYEENNEFMIKVEFNEELGKIRSKLDTLRDEIHSIHLDSAEDLGFDPDKKLKLENHHLHGWCMRLTRNDAKELRKHKKYIELSTVKAGIFFSTKQLKSIANETNILQKEYDKQQSALVREIINITLTYTPVFEKLSLVLAHLDVIASFAHTSSYAPIPYIRPKLHPMDSERRTHLISSRHPVLEMQDDISFISNDVTLESGKGDFLIITGPNMGGKSTYIRQVGVISLMAQIGCFVPCEEAEIAIVDAILCRVGAGDSQLKGVSTFMVEILETASILKNASKNSLIIVDELGRGTSTYDGFGLAWAIAEHIASKIGCFALFATHFHELTELSEKLPNVKNMHVVAHIEKNLKEQKHDDEDITLLYKVEPGISDQSFGIHVAEVVQFPEKIVKMAKRKANELDDLKTNNEDLKKAKLSLQEVNEGNIRLKALLKEWIRKVKEEGLHDPSKITEEASQHKIQELLRAIANEPEKENDNYLKYIKALLL; chain 2 MAGQPTISRFFKKAVKSELTHKQEQEVAVGNGAGSESICLDTDEEDNLSSVASTTVTNDSFPLKGSVSSKNSKNSEKTSGTSTTFNDIDFAKKLDRIMKRRSDENVEAEDDEEEGEEDFVKKKARKSPTAKLTPLDKQVKDLKMHHRDKVLVIRVGYKYKCFAEDAVTVSRILHIKLVPGKLTIDESNPQDCNHRQFAYCSFPDVRLNVHLERLVHHNLKVAVVEQAETSAIKKHDPGASKSSVFERKISNVFTKATFGVNSTFVLRGKRILGDTNSIWALSRDVHQGKVAKYSLISVNLNNGEVVYDEFEEPNLADEKLQIRIKYLQPIEVLVNTDDLPLHVAKFFKDISCPLIHKQEYDLEDHVVQAIKVMNEKIQLSPSLIRLVSKLYSHMVEYNNEQVMLIPSIYSPFASKIHMLLDPNSLQSLDIFTHDGGKGSLFWLLDHTRTSFGLRMLREWILKPLVDVHQIEERLDAIECITSEINNSIFFESLNQMLNHTPDLLRTLNRIMYGTTSRKEVYFYLKQITSFVDHFKMHQSYLSEHFKSSDGRIGKQSPLLFRLFSELNELLSTTQLPHFLTMINVSAVMEKNSDKQVMDFFNLNNYDCSEGIIKIQRESESVRSQLKEELAEIRKYLKRPYLNFRDEVDYLIEVKNSQIKDLPDDWIKVNNTKMVSRFTTPRTQKLTQKLEYYKDLLIRESELQYKEFLNKITAEYTELRKITLNLAQYDCILSLAATSCNVNYVRPTFVNGQQAIIAKNARNPIIESLDVHYVPNDIMMSPENGKINIITGPNMGGKSSYIRQVALLTIMAQIGSFVPAEEIRLSIFENVLTRIGAHDDIINGDSTFKVEMLDILHILKNCNKRSLLLLDEVGRGTGTHDGIAISYALIKYFSELSDCPLILFTTHFPMLGEIKSPLIRNYHMDYVEEQKTGEDWMSVIFLYKLKKGLTYNSYGMNVAKLARLDKDIINRAFSISEELRKESINEDALKLFSSLKRILKSDNITATDKLAKLLSLDIH
B7: PRP43 F357A (Saccharomyces cerevisiae, UniProt P53131); chain MGSKRRFSSEHPDPVETSIPEQAAEIAEELSKQHPLPSEEPLVHHDAGEFKGLQRHHTSAEEAQKLEDGKINPFTGREFTPKYVDILKIRRELPVHAQRDEFLKLYQNNQIMVFVGETGSGKTTQIPQFVLFDEMPHLENTQVACTQPRRVAAMSVAQRVAEEMDVKLGEEVGYSIRFENKTSNKTILKYMTDGMLLREAMEDHDLSRYSCIILDEAHERTLATDILMGLLKQVVKRRPDLKIIIMSATLDAEKFQRYFNDAPLLAVPGRTYPVELYYTPEFQRDYLDSAIRTVLQIHATEEAGDILLFLTGEDEIEDAVRKISLEGDQLVREEGCGPLSVYPLYGSLPPHQQQRIAEPAPESHNGRPGRKVVISTNIAETSLTIDGIVYVVDPGFSKQKVYNPRIRVESLLVSPISKASAQQRAGRAGRTRPGKCFRLYTEEAFQKELIEQSYPEILRSNLSSTVLELKKLGIDDLVHFDFMDPPAPETMMRALEELNYLACLDDEGNLTPLGRLASQFPLDPMLAVMLIGSFEFQCSQEILTIVAMLSVPNVFIRPTKDKKRADDAKNIFAHPDGDHITLLNVYHAFKSDEAYEYGIHKWCRDHYLNYRSLSAADNIRSQLERLMNRYNLELNTTDYESPKYFDNIRKALASGFFMQVAKKRSGAKGYITVKDNQDVLIHPSTVLGHDAEWVIYNEFVLTSKNYIRTVTSVRPEWLIEIAPAYYDLSNFQKGDVKLSLERIKEKVDRLNELKQGKNKKKSKHSKK

Molecule	substrate	pH	temperature	notes	together with	kcat/Km [M⁻¹ s⁻¹]
PGDH2 (Oryza sativa, UniProt B7FAD2)	O=C(O)[C@H](O)COP(=O)(O)O	pH 9	25 °C	NaCl 0.1 M, apparent	NAD+	25300 ± 1100
B1 (protein)	O=C(/C=C/c1ccc(O)cc1)c1ccc(O)cc1O					6900
B2 (putA N1014A)	O=C(O)[C@@H]1CCCN1	pH 8	23 °C			110 ± 21
B3 (PRODH2 157-515)	O=C(O)[C@@H]1C[C@@H](O)CN1	pH 7.5	25 °C		CoQ1 electron acceptor 200 µM	0.93 ± 0.05
B4 (GTPBP3 E142K/R136E)	Nc1nc2c(ncn2[C@@H]2O[C@H](COP(=O)(O)OP(=O)(O)OP(=O)(O)O)[C@@H](O)[C@H]2O)c(=O)[nH]1	pH 8	37 °C	KCl 300 mM		574
B5 (ERAP1)	CC(C)C[C@H](NC(=O)CNC(=O)[C@H](CCC(=O)O)NC(=O)[C@H](Cc1ccccc1)NC(=O)[C@H](CCCNC(=N)N)NC(=O)[C@H](CCCCN)NC(=O)[C@@H](N)Cc1ccc(O)cc1)C(=O)N[C@H](C(=O)N[C@@H](CCC(N)=O)C(=O)N[C@@H](CCCNC(=N)N)C(=O)O)[C@@H](C)O		25 °C			10000 ± 2000
B6 (Msh2/Msh3)	Nc1ncnc2c1ncn2[C@@H]1O[C@H](COP(=O)(O)OP(=O)(O)OP(=O)(O)O)[C@@H](O)[C@H]1O	pH 7.5	30 °C	no DNA	magnesium acetate 2 mM	417
B7 (PRP43 F357A)	Nc1ccn([C@@H]2O[C@H](COP(=O)(O)OP(=O)(O)OP(=O)(O)O)[C@@H](O)[C@H]2O)c(=O)n1	pH 8		KCl 100 mM, without Pfa1	polyA 0.2 mM, magnesium acetate 2.5 mM	73200 ± 7200

Some of these lines once more:
Molecule	substrate	pH	temperature	notes	together with	kcat/Km [M⁻¹ s⁻¹]
B4 (GTPBP3 E142K/R136E)	Nc1nc2c(ncn2[C@@H]2O[C@H](COP(=O)(O)OP(=O)(O)OP(=O)(O)O)[C@@H](O)[C@H]2O)c(=O)[nH]1	pH 8	37 °C	KCl 300 mM		574
